# Results from different studies.
# Numbered parts are unrelated; each lists some results of a single study. Several values in a cell are separate wells, animals, samples, runs or records.
# UniProt P51812, sequence (whole entry, looked up): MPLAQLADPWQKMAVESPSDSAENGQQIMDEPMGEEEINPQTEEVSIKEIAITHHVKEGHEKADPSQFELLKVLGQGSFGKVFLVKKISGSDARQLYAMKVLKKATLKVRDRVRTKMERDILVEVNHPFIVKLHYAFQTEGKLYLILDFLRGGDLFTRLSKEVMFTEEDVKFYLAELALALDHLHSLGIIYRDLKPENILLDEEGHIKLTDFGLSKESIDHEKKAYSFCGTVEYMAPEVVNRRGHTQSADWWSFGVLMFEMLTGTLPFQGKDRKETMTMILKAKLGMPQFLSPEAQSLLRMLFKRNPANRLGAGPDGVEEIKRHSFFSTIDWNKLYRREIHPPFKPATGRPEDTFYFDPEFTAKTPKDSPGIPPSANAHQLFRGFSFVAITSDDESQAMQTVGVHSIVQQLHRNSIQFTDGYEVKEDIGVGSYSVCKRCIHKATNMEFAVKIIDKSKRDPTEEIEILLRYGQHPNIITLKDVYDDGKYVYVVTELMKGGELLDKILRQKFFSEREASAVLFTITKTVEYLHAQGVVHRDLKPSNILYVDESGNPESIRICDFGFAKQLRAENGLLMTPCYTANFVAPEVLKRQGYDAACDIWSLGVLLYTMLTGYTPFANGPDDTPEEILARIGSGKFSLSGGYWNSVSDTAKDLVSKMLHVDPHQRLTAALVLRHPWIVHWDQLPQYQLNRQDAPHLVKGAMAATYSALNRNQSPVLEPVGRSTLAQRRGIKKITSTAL
# UniProt P29597, sequence (whole entry, looked up): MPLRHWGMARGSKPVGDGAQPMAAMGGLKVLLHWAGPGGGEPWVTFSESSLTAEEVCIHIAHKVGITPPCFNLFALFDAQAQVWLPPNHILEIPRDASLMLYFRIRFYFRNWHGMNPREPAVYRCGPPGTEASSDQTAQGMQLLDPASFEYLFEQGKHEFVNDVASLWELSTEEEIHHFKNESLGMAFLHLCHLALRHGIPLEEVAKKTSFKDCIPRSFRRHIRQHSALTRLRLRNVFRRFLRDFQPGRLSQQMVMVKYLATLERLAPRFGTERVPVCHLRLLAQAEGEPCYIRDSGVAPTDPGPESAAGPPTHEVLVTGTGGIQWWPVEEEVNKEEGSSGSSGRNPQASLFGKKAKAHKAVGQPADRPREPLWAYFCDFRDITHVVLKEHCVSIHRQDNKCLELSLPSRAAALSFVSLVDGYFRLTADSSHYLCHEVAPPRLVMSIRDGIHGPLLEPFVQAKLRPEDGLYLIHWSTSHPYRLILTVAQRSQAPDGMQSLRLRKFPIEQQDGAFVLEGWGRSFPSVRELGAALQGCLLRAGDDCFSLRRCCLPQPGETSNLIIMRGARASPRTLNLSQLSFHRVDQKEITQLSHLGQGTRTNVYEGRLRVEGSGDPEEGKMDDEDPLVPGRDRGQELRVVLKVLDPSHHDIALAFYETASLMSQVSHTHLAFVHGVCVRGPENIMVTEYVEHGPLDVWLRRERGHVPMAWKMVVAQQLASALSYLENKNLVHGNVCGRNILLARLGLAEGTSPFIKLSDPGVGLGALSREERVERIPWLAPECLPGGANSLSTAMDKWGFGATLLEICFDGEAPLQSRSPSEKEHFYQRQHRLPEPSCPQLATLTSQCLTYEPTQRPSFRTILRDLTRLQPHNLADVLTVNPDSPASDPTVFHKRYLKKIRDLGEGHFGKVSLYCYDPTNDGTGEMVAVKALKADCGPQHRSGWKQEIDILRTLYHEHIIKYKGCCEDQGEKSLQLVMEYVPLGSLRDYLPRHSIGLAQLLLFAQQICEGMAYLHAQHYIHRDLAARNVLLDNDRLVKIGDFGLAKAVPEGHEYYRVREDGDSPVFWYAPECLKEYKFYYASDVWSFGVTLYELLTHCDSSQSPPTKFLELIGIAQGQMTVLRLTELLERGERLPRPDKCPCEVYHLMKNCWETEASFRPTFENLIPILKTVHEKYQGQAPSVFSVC
# UniProt P09769, sequence (whole entry, looked up): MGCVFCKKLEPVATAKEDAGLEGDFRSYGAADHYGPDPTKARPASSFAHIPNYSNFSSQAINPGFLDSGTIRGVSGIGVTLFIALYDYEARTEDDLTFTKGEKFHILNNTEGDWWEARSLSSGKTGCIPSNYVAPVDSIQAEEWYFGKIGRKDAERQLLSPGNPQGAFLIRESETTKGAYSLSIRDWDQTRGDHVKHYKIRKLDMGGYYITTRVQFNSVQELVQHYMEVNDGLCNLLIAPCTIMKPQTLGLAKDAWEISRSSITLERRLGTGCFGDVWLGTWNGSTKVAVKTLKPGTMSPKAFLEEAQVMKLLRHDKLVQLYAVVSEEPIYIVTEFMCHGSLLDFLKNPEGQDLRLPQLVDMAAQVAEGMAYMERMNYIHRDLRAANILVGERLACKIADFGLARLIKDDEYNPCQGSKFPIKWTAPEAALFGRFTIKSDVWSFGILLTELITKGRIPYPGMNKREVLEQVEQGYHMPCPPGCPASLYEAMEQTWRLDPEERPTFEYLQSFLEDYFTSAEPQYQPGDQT
# UniProt Q8TBX8, sequence (whole entry, looked up): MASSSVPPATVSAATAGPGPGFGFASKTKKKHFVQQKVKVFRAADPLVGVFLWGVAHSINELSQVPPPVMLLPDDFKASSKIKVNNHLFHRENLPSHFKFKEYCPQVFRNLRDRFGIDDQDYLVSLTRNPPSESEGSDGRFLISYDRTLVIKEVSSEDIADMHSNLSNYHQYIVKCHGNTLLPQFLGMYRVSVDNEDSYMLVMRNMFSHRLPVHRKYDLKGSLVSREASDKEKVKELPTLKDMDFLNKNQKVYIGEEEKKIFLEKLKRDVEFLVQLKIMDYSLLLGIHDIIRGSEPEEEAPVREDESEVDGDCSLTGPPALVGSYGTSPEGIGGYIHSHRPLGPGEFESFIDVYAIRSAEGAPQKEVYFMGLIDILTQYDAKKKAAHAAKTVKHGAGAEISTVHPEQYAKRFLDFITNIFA
# UniProt Q15759, sequence (whole entry, looked up): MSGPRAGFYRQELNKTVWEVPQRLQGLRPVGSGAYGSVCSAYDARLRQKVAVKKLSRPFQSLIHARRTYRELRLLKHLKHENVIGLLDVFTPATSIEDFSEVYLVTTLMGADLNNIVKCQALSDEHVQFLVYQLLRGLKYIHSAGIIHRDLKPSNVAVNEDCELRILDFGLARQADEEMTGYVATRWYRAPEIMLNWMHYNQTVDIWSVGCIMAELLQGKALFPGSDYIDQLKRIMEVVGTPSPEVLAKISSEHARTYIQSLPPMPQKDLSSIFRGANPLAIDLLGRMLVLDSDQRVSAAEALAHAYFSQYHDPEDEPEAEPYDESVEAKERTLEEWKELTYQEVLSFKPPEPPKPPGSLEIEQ

# Sample 1
# SMILES: CCN1/C(=C/C=C2\CCCC(/C=C/C3=[N+](CC)c4ccccc4C3(C)C)=C2NCCCCCCCCN2CCC(Nc3nc4ccccc4n3Cc3ccc(F)cc3)CC2)C(C)(C)c2ccccc21
# Cell line: U-87 MG
# Concentration: concentration not given
# Relative to: DMSO
measured,log2 fold change
KIAA1522 mRNA,-0.934
PEG10 mRNA,-1.24
CLDN1 mRNA,2.78
TGFB3 mRNA,-3.12
HBEGF mRNA,0.913
EDNRA mRNA,1
SLU7 mRNA,1.03
PLCG2 mRNA,3.42
GSN mRNA,-0.918
DCPS mRNA,-1.28
B3GNT9 mRNA,-0.847
FAM78B mRNA,-1.57
DAW1 mRNA,-1.97
NBEA mRNA,1.28
FBXL2 mRNA,-1.13
VPS37A mRNA,0.932

# Sample 2
# SMILES: CC[C@@]1(c2cccc(C(F)(F)F)c2)C2=C(Nc3n[nH]cc31)[C@H](F)C(C)(C)CC2=O (single isomer, unassigned)
# Concentration: 1 µM
target,read-out,technique,relative to,remaining binding [%]
"MAPK9 (Homo sapiens, UniProt P45984)",binding,competition with immobilised ligand,,73
"EGFR (Homo sapiens, UniProt P00533, del746-750)",binding,competition with immobilised ligand,,100
"PIP4K2C (Homo sapiens, UniProt Q8TBX8)",kinase binding,KINOMEscan,DMSO control,79
"FLT3 ITD/F691L, human",,KINOMEscan,,100
"PRKX (Homo sapiens, UniProt P51817)",binding,competition with immobilised ligand,,83
"MAP2K3 (Homo sapiens, UniProt P46734)",binding,competition with immobilised ligand,,80
"CSNK1G2 (Homo sapiens, UniProt P78368)",kinase binding,KINOMEscan,DMSO control,85
"CDK2 (Homo sapiens, UniProt P24941)",binding,competition with immobilised ligand,,97
"CAMK1 (Homo sapiens, UniProt Q14012)",binding,competition with immobilised ligand,,100
"MAPK3 (Homo sapiens, UniProt P27361)",binding,competition with immobilised ligand,,88
"FLT3 (Homo sapiens, UniProt P36888)",binding,competition with immobilised ligand,,100
"CDKL2 (Homo sapiens, UniProt Q92772)",binding,competition with immobilised ligand,,100
"STK33 (Homo sapiens, UniProt Q9BYT3)",kinase binding,KINOMEscan,DMSO control,100
"Ribosomal protein S6 kinase alpha-2, C-terminal kinase domain (RPS6KA2, Homo sapiens, UniProt Q15349)",binding,competition with immobilised ligand,,73
"Tyrosine-protein kinase ABL1, phosphorylated (ABL1, Homo sapiens, UniProt P00519, F317I)",binding,competition with immobilised ligand,,84
"Ribosomal protein S6 kinase alpha-3, N-terminal kinase domain (RPS6KA3, Homo sapiens, UniProt P51812)",kinase binding,KINOMEscan,DMSO control,100
"Macrophage colony-stimulating factor 1 receptor, autoinhibited (CSF1R, Homo sapiens, UniProt P07333)",kinase binding,KINOMEscan,DMSO control,100
"MAP2K2 (Homo sapiens, UniProt P36507)",kinase binding,KINOMEscan,DMSO control,66

# Sample 3
# Structure (SMILES): Cc1ncsc1-c1ccc(C(CO)NC(=O)C2CC(O)CN2C(=O)C(C(C)C)n2cc(-c3ccc(COc4c(-c5c(C)c(F)cc6[nH]ncc56)c(C5CC5)cc5c(N6CC7CC6CN7)nc(OC6CCOCC6)nc45)cc3)nn2)cc1 (stereo not shown)
# Route: intravenous
host,sample,dose,time,concentration
mouse (PK-59 xenograft),tumor,30 mg/kg,48 h,770 ng/g
"male Balb/c nu/nu mouse, PK-59 xenograft",tumor,10 mg/kg,24 h,214 ng/g and 283 ng/g
mouse (PK-59 xenograft),pancreas,30 mg/kg,144 h,30.3 ng/g
mouse (PK-59 xenograft),tumor,10 mg/kg,72 h,137 ng/g
"mouse, PK-59 xenograft",pancreas,30 mg/kg,48 h,125 ng/g and 110 ng/g
"mouse, PK-59 xenograft",pancreas,30 mg/kg,72 h,136 ng/g and 80.1 ng/g
mouse (PK-59 xenograft),pancreas,30 mg/kg,48 h,139 ng/g
"male Balb/c nu/nu mouse, PK-59 xenograft",tumor,30 mg/kg,2 h,1690 ng/g and 1360 ng/g

# Sample 4
# Compound: COc1cc(C(=O)OCCCN2CCCN(CCCOC(=O)c3cc(OC)c(OC)c(OCc4ccc([N+](=O)[O-])cc4)c3)CC2)cc(OC)c1OC
assay,test system,setting,paw withdrawal frequency
cold mechanical pain,"mouse, spared nerve injury model","intrathecal, 100 nmol, before third of 3 doses",10% and 40% and 60% and 80%
"von Frey, 0.4 g filament","mouse, CFA inflammatory pain","subcutaneous, 10 mg/kg, after CFA, before dosing",80% and 60% and 90% and 70%
"von Frey, 0.4 g filament","mouse, CFA inflammatory pain","subcutaneous, 10 mg/kg, 24 h post-dose, first injection, day 1",80% and 70% and 90%
"von Frey, 0.4 g filament","mouse, CFA inflammatory pain","subcutaneous, 10 mg/kg, baseline before CFA",10% and 0%
von Frey test,"mouse, CFA inflammatory pain","intrathecal, dose not given, 1 h, together with: DPCPX 10 nmol intrathecal",30% and 40% and 20%
"von Frey, 0.4 g filament","mouse, CFA inflammatory pain","intravenous, dose not given, 5 h post-dose, third injection, day 5",50% and 30% and 20% and 40%
"von Frey, 0.4 g filament","mouse, CFA inflammatory pain","intravenous, dose not given, 3 h post-dose, third injection, day 5",20% and 0% and 10%
von Frey test,"mouse, spared nerve injury","intrathecal, 100 nmol, third of 3 doses, 5 h",60% and 10% and 0% and 70%
von Frey test,"mouse, CFA inflammatory pain","intrathecal, dose not given, 24 h, together with: DPCPX 10 nmol intrathecal",70% and 80% and 60%
"von Frey, 0.4 g filament","mouse, CFA inflammatory pain","intravenous, dose not given, 24 h post-dose, first injection, day 1",90% and 80% and 70%
"von Frey, 0.4 g filament","mouse, CFA inflammatory pain","intravenous, dose not given, 5 h post-dose, first injection, day 1",70% and 50% and 90% and 60%
von Frey test,"mouse, STZ diabetic neuropathy","subcutaneous, 30 mg/kg, second of three doses, 1 h",0.98 fraction of stimuli and 0.65 fraction of stimuli and 0.51 fraction of stimuli and 0.44 fraction of stimuli and 0.13 fraction of stimuli and 0.32 fraction of stimuli

# Sample 5
# Compound: NCc1ccc(Cn2cc(Cc3cc(N)nc4[nH]nnc34)cn2)cc1
# Target: Myeloperoxidase (MPO, Homo sapiens, UniProt P05164)
# UniProt P05164, sequence (whole entry, looked up): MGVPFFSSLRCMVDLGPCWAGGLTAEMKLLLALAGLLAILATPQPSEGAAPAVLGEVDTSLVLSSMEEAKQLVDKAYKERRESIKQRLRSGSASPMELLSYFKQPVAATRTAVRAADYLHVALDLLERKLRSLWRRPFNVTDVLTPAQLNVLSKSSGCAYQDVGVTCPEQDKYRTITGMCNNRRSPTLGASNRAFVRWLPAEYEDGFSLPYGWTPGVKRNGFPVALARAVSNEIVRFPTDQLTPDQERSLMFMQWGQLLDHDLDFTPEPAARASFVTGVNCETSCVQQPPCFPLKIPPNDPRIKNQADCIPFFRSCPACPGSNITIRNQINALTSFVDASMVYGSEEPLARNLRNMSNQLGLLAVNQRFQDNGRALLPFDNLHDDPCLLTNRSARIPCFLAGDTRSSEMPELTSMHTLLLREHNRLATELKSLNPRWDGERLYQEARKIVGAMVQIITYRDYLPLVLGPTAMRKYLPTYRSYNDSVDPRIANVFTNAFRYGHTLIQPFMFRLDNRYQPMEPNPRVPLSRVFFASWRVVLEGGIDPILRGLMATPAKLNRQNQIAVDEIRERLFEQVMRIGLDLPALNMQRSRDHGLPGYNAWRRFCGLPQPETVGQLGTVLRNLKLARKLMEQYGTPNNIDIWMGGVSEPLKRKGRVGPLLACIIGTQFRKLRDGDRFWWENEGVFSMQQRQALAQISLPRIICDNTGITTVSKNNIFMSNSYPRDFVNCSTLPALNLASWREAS
read-out,action,technique,concentration,inhibition
enzyme activity,inhibitor,fluorescence,0.3704 µM,96.7%
enzyme activity,inhibitor,fluorescence,30 µM,100%
H2O2 consumption,,Amplex Red,30 µM,100%
enzyme activity,inhibitor,fluorescence,0.1235 µM,91.5%
enzyme activity,inhibitor,fluorescence,1.111 µM,99.4%
H2O2 consumption,,Amplex Red,0.1235 µM,90.9%
H2O2 consumption,,Amplex Red,10 µM,99.8%
H2O2 consumption,,Amplex Red,0.3704 µM,97.4%

# Sample 6
# SMILES: CN(C1COC1)C(C)(C)/C=C(\C#N)C(=O)N1CCC[C@H]1Cn1nc(-c2ccc(Oc3ccccc3)cc2F)c2c(N)ncnc21
# Read-out: kinase activity
target,concentration,inhibition [%]
"CLK3 (Homo sapiens, UniProt P49761)",0.1 µM,1
"5'-AMP-activated protein kinase catalytic subunit alpha-1, with beta1, gamma1 (PRKAA1, Homo sapiens, UniProt Q13131)",1 µM,-3
"MAPK11 (Homo sapiens, UniProt Q15759)",1 µM,3
"RPS6KA3 (Homo sapiens, UniProt P51812)",1 µM,-2
"EGFR (Homo sapiens, UniProt P00533)",0.1 µM,4
"FGR (Homo sapiens, UniProt P09769)",0.1 µM,31
"MARK1 (Homo sapiens, UniProt Q9P0L2)",0.1 µM,4
"CAMK2B (Homo sapiens, UniProt Q13554)",1 µM,1
"CHUK (Homo sapiens, UniProt O15111)",0.1 µM,-1
"DYRK1B (Homo sapiens, UniProt Q9Y463)",0.1 µM,-6
"PDPK1 (Homo sapiens, UniProt O15530)",1 µM,-3
"CSNK1G3 (Homo sapiens, UniProt Q9Y6M4)",1 µM,14
"TYK2 (Homo sapiens, UniProt P29597)",0.1 µM,-2
"ERBB4 (Homo sapiens, UniProt Q15303)",0.1 µM,50
"FES (Homo sapiens, UniProt P07332)",0.1 µM,6
"FGFR1 (Homo sapiens, UniProt P11362)",0.1 µM,7

# Sample 7
# SMILES: COCCCCCCC1CC2C(CCC3(C)C(O)CCC23)c2ccc(O)cc21 (stereo not shown)
cell line,technique,measured,concentration,relative to,mRNA level ratio
SK-OV-3,DNA microarray,GZMK,10 µM,untreated cells,23.7
A549,DNA microarray,ACTB,50 µM,untreated cells,0.94
A549,DNA microarray,CCL11,50 µM,untreated cells,1
A549,microarray,ADAMTS8,50 µM,untreated,0.345
PANC-1,microarray,GADD45A,50 µM,untreated,6.87
SK-OV-3,DNA microarray,CCL11,10 µM,untreated cells,1
SK-OV-3,microarray,ACTA2,50 µM,untreated,0.733
PANC-1,microarray,ADAMTS14,50 µM,untreated,0.827
A549,microarray,CCL8,50 µM,untreated,24.3
SK-OV-3,DNA microarray,CCL11,50 µM,untreated cells,1

# Sample 8
# SMILES: CN1C(=O)C(O)(C(=O)O)Oc2cc(F)ccc21 (stereo not shown)
organism,assay,test system,setting,scale,inhibition
Abutilon theophrasti,fresh weight,,"150 g ai/ha, pre-emergence treatment",,61.2% and 54.2% and 63.4%
Arabidopsis thaliana,root length,"Col-0, seedlings",3.125 µg/mL,relative to: water control,7.57%
Alopecurus japonicus,fresh weight,,"150 g ai/ha, pre-emergence treatment",,60.2% and 61.7% and 57.8%
Arabidopsis thaliana,hypocotyl length,"Col-0, seedlings",25 µg/mL,,24.4%
Arabidopsis thaliana,root length,Col-0,"12.5 µg/mL, 7 days, seed germination, dark",,22.7%
Arabidopsis thaliana,root length,Col-0,"50.0 µg/mL, 7 days, seed germination, dark",,36.5%
Arabidopsis thaliana,root length,Col-0,"3.13 µg/mL, 7 days, seed germination, dark",,7.6%
Arabidopsis thaliana,root length,"Col-0, seedlings",100 µg/mL,,63.2%
Zea mays,fresh weight,,"soil surface spray, 150 g ai/ha, 21 days, pre-emergence crop safety",,16.5% and 21.6% and 17.4%
Setaria viridis,fresh weight,,"150 g ai/ha, pre-emergence treatment",,15.2% and 16.1% and 17%
Oryza sativa,fresh weight,,"soil surface spray, 150 g ai/ha, 21 days, pre-emergence crop safety",,8.9% and 8.7% and 9.4%
Arabidopsis thaliana,hypocotyl length,Col-0,"6.25 µg/mL, 7 days, seed germination, dark",,13.1%
Arabidopsis thaliana,root length,"Col-0, seedlings",6.25 µg/mL,,11.9%
Arabidopsis thaliana,root length,"Col-0, seedlings",100 µg/mL,relative to: water control,63.2%

# Sample 9
# SMILES: Cc1ccc(O)c(C)c1-c1cnc2[nH]c(-c3cnc(N4CCC5(CC4)CC(N4CCN(c6ccc(N[C@H]7CCC(=O)NC7=O)cc6F)CC4)CO5)nc3)cc2c1C#N (single isomer, unassigned)
# CRBN: Protein cereblon (CRBN, Homo sapiens, UniProt Q96SW2)
# UniProt Q96SW2, sequence (whole entry, looked up): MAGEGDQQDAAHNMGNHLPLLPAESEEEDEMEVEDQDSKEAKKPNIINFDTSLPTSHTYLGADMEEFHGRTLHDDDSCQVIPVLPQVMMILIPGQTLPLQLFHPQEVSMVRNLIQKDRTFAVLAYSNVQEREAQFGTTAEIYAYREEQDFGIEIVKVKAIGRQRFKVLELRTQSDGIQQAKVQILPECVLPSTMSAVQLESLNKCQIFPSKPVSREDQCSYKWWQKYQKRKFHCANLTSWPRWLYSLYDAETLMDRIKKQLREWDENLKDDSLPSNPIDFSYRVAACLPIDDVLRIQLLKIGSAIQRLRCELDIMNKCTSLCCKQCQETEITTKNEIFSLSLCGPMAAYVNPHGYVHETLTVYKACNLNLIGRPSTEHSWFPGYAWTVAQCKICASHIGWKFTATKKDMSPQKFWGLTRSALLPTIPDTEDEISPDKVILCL
# PKMYT1: Membrane-associated tyrosine- and threonine-specific cdc2-inhibitory kinase (PKMYT1, Homo sapiens, UniProt Q99640)
# UniProt Q99640, sequence (whole entry, looked up): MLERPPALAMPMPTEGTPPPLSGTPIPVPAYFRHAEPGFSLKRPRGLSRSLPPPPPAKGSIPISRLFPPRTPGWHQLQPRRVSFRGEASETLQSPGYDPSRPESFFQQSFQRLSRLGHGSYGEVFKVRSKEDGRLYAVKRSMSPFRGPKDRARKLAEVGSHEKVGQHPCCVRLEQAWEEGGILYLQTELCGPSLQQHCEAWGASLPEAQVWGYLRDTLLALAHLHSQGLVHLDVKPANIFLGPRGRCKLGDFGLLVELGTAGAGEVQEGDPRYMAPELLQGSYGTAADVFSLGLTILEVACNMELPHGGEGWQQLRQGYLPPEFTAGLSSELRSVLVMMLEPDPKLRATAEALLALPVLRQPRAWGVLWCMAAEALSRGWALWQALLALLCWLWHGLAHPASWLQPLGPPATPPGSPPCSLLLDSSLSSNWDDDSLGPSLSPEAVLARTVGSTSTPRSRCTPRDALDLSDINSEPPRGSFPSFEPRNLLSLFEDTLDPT
tested on,read-out,technique,measured,concentration,time,inhibition
CRBN,binding,,,10000 nM,,58.1% and 74.5%
RAF1,,KINOMEscan,,1000 nM,,72%
MKN-1,cell proliferation,,,1111.11 nM,,99.3%
PKMYT1,,,,0.01372 µM,,78.5%
HCC1569,,automated capillary immunoblot,CDK1 phospho-Thr14,100 nM,2 h,36%
PKMYT1,,,,10 µM,,97.6%
RKO,cell proliferation,,,41.15 nM,,1.71% and -1.2%
CRBN,binding,,,3333.33 nM,,49.8% and 41.1%
NCI-H1568,cell growth,,,4.572 nM,,2.03%
PKMYT1,,,,370.37 nM,,97.3% and 99.8%

# Repeated from above (sample 9):
tested on,read-out,technique,measured,concentration,time,inhibition
MKN-1,cell proliferation,,,1111.11 nM,,99.3%
PKMYT1,,,,0.01372 µM,,78.5%
HCC1569,,automated capillary immunoblot,CDK1 phospho-Thr14,100 nM,2 h,36%
PKMYT1,,,,10 µM,,97.6%
RKO,cell proliferation,,,41.15 nM,,1.71% and -1.2%
CRBN,binding,,,3333.33 nM,,49.8% and 41.1%
